Measurements gathered from unrelated publications.
Compare with care: the assays were run in different laboratories. Values joined by “and” are separate records of one study, mostly repeats; a detail may differ.
Target: Muscarinic acetylcholine receptor M1 (CHRM1, Homo sapiens, UniProt P11229)

Structure (SMILES)	test	test system	setting	scale	endpoint	value
CS(C)(=O)=Nc1ccc(-c2ccc(-c3nc4cc(O[C@@H]5CO[C@H]6[C@@H]5OC[C@H]6O)[nH]c4cc3F)cc2)cc1	calcium signal, antagonist		10 µM		inhibition	56%
CCCO[C@H]1[C@H](O)[C@@H](N)[C@@H](O[C@H]2[C@H](O[C@@H]3O[C@H](CO)[C@@H](O[C@H]4O[C@@H](CN)[C@@H](O)[C@H](O)[C@H]4N)[C@H]3O)[C@@H](O)[C@H](N)C[C@@H]2N)O[C@@H]1CO	radioligand binding		10 µM, 1% DMSO		specific binding	6%
C[C@H](NCc1ccc(-c2ccc(C(F)(F)F)cc2)cc1)C(N)=O	radioligand binding		1 µM, together with: [3H]N-methylscopolamine 0.80 nM		inhibition of binding	-3%
C/C(=N\OCCCN1CCCCC1)c1ccc(C(F)(F)F)cc1	antagonist, IP-One		10 µM		inhibition	26.7%
Cc1cc(-c2ccc3ccccc3c2)nnc1NCCN1CCN(C)CC1	antagonist		10000 nM	baseline: control	activity	0%
N[C@H](C(=O)N1CCCC1)C1CCN(c2nccc3c(-c4ncc(Cl)cc4Cl)cccc23)CC1	functional response, antagonist		10 µM		inhibition	50%
CCOC(=O)[C@](CC)(CCCSCCOCCOCCNC(=O)c1ccc(-c2c3ccc(=N)c(S(=O)(=O)O)c-3oc3c(S(=O)(=O)O)c(N)ccc23)c(C(=O)O)c1)NC(=O)c1ccc(C2CC2)c(Cc2ccc(F)cc2)n1	ligand displacement, radioligand		10 µM		inhibition	-5%
COc1ccc(F)cc1S(=O)(=O)Nc1cnc2c(c1)C(=O)NCCO2	ligand displacement, radioligand		10 µM		inhibition	1%
CN[C@@H]1[C@H](O)[C@H](NC)[C@H]2O[C@]3(O)[C@H](O[C@@H]2[C@H]1O)O[C@H](C)C[C@H]3NC(=O)Cc1cc(Cl)ccn1	ligand displacement, radioligand		10 µM		inhibition	0%
O=C(O)c1ccc(-c2nc(-c3ccccc3Cl)c3sccn23)cc1	radioligand binding		10 µM, safety screen panel	baseline: control	specific binding	94.6% and 102%
CCc1nnc(-c2c(OC)cc(-c3cnc4cc(-c5cnn(C)c5)ccn34)cc2OC)o1	antagonist radioligand, radioligand binding		10 µM, SafetyScreen44 M1 replicate 2	lower = stronger displacement	remaining binding	101%
Cc1sc2c(c1C)C(c1ccc(Cl)cc1)=NC(CC(=O)OC(C)(C)C)c1nnc(C)n1-2 (centres unmarked)	radioligand binding		1 µM		specific binding	114%
Cc1cc(Nc2nc(C[C@@]3(C(=O)O)CCN(Cc4cccc(Cl)c4F)[C@H](C)C3)cc(C)c2F)[nH]n1	inhibitor		10 µM		inhibition	10.1%
CCN(CC)CCOc1ccc(-c2nnn(Cc3ccc(OC)cc3)c2N)cc1	radioligand binding	HEK293	10 µM, safety profiling		inhibition	11.2%

Excerpt of the above:
Structure (SMILES)	test	test system	setting	scale	endpoint	value
CCCO[C@H]1[C@H](O)[C@@H](N)[C@@H](O[C@H]2[C@H](O[C@@H]3O[C@H](CO)[C@@H](O[C@H]4O[C@@H](CN)[C@@H](O)[C@H](O)[C@H]4N)[C@H]3O)[C@@H](O)[C@H](N)C[C@@H]2N)O[C@@H]1CO	radioligand binding		10 µM, 1% DMSO		specific binding	6%
C[C@H](NCc1ccc(-c2ccc(C(F)(F)F)cc2)cc1)C(N)=O	radioligand binding		1 µM, together with: [3H]N-methylscopolamine 0.80 nM		inhibition of binding	-3%
